Results pooled from the literature.
Each numbered part is a random draw from the data of one study; scales do not carry over between parts. Positions count from the first letter of the parent shown.

Block 1 — target: tungstate, free oxyanion; method: microfluidic competitive inhibition; sample: in vitro, cell-free expressed; tested at: not given; reading: lower = stronger binding
Notes: derived from inhibition constants, unchanged parent 2230 nM
Starting sequence: PafA, mature enzyme, eGFP fusion (Elizabethkingia meningoseptica, UniProt Q9KJX5); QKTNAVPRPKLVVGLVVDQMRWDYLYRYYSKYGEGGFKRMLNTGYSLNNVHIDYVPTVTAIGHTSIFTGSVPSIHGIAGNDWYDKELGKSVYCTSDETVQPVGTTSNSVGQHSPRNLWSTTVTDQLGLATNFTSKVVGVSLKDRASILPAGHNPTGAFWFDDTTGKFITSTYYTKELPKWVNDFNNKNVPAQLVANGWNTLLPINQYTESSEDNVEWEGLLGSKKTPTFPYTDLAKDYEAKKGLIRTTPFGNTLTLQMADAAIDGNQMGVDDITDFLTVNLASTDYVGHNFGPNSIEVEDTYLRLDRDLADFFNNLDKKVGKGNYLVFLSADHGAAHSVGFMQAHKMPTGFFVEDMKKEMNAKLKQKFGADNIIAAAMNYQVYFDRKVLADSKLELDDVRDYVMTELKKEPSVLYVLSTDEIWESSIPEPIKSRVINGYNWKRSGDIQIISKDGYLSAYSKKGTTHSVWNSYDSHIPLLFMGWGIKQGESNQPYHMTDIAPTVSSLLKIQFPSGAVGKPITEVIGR
Substitution	oxyanion analog dissociation constant [µM]
R21G	2.86
S513G	1.72
N131G	1.26
K224V	2.2
P178G	2.11
S223V	1.95
S457G	2.21
I524V	2.14
L128V	1.95
I245V	2.08
M481V	2.03
P203V	1.98
S283V	3.33
A150G	2.66
Y415V	1.28

Block 2 — method: protein-binding microarray; molecule type: double-stranded DNA, one strand shown; sample: in vitro; tested at: 940 nM top; notes: 60-bp whole probe; together with: salmon DNA 0.4 mg/ml; relative to: random background probes; reading: higher = stronger binding; constant ends, left off below: GCCTAGCAC … GTCTTGATTCGCTTGACGCTGCTG
Target: Interferon regulatory factor 5, full length, phosphomimetic (IRF5, Homo sapiens, UniProt Q13568-2, residues 1-514, S451D/S453D/S456D/S462D)
Strand	fitted relative affinity [z-score]
TTTGGTATCGGTCTCGGTTAGTGCTAG	13.9
TCATTATGCTCTTTCTAACTGTGCTAG	0.848
TCATTTATTTTTTTTATACTGTGCTAG	1.83
TTGTGTCAACTTTCTCTGCTCGTGCTA	0.177
TTAGGTCTCGGTCTCGGTGAGTGCTAG	5.08
TTTTGCTTTCCTTTATGTACGTGCTAG	2.66
GACGATATCAGTATCGGGACGTGCTAG	1.65
TTAGGTCTCCTGATCCTTTAGTGCTAG	-0.269

Block 3 — method: aptamer microarray, sandwich; molecule type: DNA with 2'F-ANA; sample: in vitro; tested at: 200 nM; together with: Cy3 exosite-II aptamer, 400 nM; reading: higher = stronger binding; strand: GGTTGGTGTGGTTGG
Target: Prothrombin, mature alpha-thrombin (F2, Homo sapiens, UniProt P00734)
Notes: whole 15-mer aptamer, many near background
Modification	mean fluorescence intensity
2'F-ANA at 1 4 7 8 9 10 11 14 15	49.9 a.u.
2'F-ANA at 2 4 5 6 7 8 9 12 13 15	126 a.u.
2'F-ANA at 2 4 7 9 10 12 13	103 a.u.
2'F-ANA at 2 4 5 7 8 10 13 15	86.4 a.u.
2'F-ANA at 2 3 4 7 15	730 a.u.
2'F-ANA at 1 2 5 6 7 8 9 10 11 14 15	46.8 a.u.
2'F-ANA at 3 5 7 8 10 12 13 14 15	56.3 a.u.
2'F-ANA at 1 2 3 4 6 11 12	249 a.u.

Block 4 — target: CCNA2, cyclin fold, Cln2 fusion (human); method: yeast growth competition, sequencing; sample: yeast; notes: strong parent motif; relative to: not given; reading: higher = stronger binding
Starting sequence: viral docking peptide; KKAKRRLFTISDS; partner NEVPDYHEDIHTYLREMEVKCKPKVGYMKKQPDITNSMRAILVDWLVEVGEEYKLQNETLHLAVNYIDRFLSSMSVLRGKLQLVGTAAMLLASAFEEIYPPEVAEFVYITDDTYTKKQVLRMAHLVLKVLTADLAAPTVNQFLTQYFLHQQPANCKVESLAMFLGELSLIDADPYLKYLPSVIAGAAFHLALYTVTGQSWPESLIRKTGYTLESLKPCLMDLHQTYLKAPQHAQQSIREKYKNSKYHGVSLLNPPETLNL
Substitution	normalised enrichment score
KKAKRRLATISDS [F8A]	0.782
KAAKRRLFTISDS [K2A]	3.85
KKAKRRAFTISDS [L7A]	1.07

Excerpt of the above (block 2):
Strand	fitted relative affinity [z-score]
TTTGGTATCGGTCTCGGTTAGTGCTAG	13.9
TCATTATGCTCTTTCTAACTGTGCTAG	0.848
TCATTTATTTTTTTTATACTGTGCTAG	1.83
TTGTGTCAACTTTCTCTGCTCGTGCTA	0.177
